Experimental data collected from several papers.
Lines come from different studies, so protocols differ. Numbers after ± are the reported error.
Organism: Escherichia coli

SMILES | test | system | setting | scale | MIC
CC[C@H](C)[C@H](NC(=O)CNC(=O)[C@H](CC(=O)O)NC(=O)[C@H](CCCNC(=N)N)NC(=O)[C@@H](NC(=O)[C@H](CC(N)=O)NC(=O)[C@H](CCCNC(=N)N)NC(=O)CNC(=O)[C@@H](NC(=O)[C@H](CCCCN)NC(=O)[C@H](CCC(=O)O)NC(=O)[C@@H](NC(=O)[C@H](CCCCN)NC(=O)[C@H](CCCCN)NC(=O)[C@H](Cc1ccccc1)NC(=O)[C@@H](NC(=O)[C@H](CCCCN)NC(=O)[C@H](Cc1c[nH]c2ccccc12)NC(=O)[C@@H](N)CCCNC(=N)N)[C@@H](C)CC)[C@@H](C)CC)C(C)C)C(C)C)C(=O)N[C@H](C(=O)N[C@@H](CCCCN)C(=O)N[C@@H](C)C(=O)NCC(=O)N1CCC[C@H]1C(=O)N[C@@H](C)C(=O)N[C@H](C(=O)N[C@@H](C)C(=O)N[C@H](C(=O)N[C@H](C(=O)NCC(=O)N[C@@H](CCC(N)=O)C(=O)N[C@@H](C)C(=O)N[C@@H](C)C(=O)N[C@H](C(=O)N[C@H](C(=O)N[C@H](C(=O)N[C@@H](CCCCN)C(N)=O)C(C)C)C(C)C)[C@@H](C)O)C(C)C)C(C)C)C(C)C)[C@@H](C)CC |  | NCCP 16044 carbapenem-resistant |  |  | 1 µM
CC1(C)S[C@@H]2[C@H](NC(=O)C(C(=O)O)c3ccccc3)C(=O)N2[C@H]1C(=O)O (stereo partly drawn) | broth microdilution | Keio mutant JW0146-2 | 18 h, ferric hydroxamate uptake gene |  | 12.5 µg/mL
Cc1ccc2[nH]c3c(c2c1)CCCC3NCCc1ccc(Br)cc1 (stereo not drawn) | broth microdilution | O-19592 |  |  | > 128 µg/mL
CC1(C)SC2C(NC(=O)C(NC(=O)C3=C(O)C4(CC4)NC3=O)c3ccccc3)C(=O)N2C1C(=O)O (stereo not drawn) | broth microdilution | isolate IU 356 A, KPC-3, VIM-1, TEM | together with: clavulanic acid 6 µg/mL |  | > 200 µg/mL
CC[C@H](C)[C@H](NC(=O)[C@@H]1CCCN1C(=O)[C@@H]1CCCN1C(=O)[C@H](CCCNC(=N)N)NC(=O)[C@H](Cc1ccccc1)NC(=O)[C@@H](N)CCCNC(=N)N)C(=O)N[C@@H](CCCNC(=N)N)C(=O)N[C@@H](CCCNC(=N)N)C(=O)N1CCC[C@H]1C(=O)N1CCC[C@H]1C(=O)N[C@H](C(=O)N[C@@H](CCCNC(=N)N)C(=O)N1CCC[C@H]1C(=O)N1CCC[C@H]1C(=O)N[C@@H](Cc1ccccc1)C(=O)N[C@@H](Cc1ccc(O)cc1)C(=O)N1CCC[C@H]1C(=O)N1CCC[C@H]1C(=O)N[C@@H](Cc1ccccc1)C(=O)N[C@@H](CCCNC(=N)N)C(=O)N1CCC[C@H]1C(=O)N1CCC[C@H]1C(=O)N[C@H](C(=O)N[C@@H](CCCNC(=N)N)C(=O)N1CCC[C@H]1C(=O)N1CCC[C@H]1C(=O)N[C@H](C(=O)N[C@@H](Cc1ccccc1)C(=O)N1CCC[C@H]1C(=O)N1CCC[C@H]1C(=O)N[C@H](C(=O)N[C@@H](CCCNC(=N)N)C(=O)N1CCC[C@H]1C(=O)N1CCC[C@H]1C(=O)N[C@@H](Cc1ccccc1)C(=O)N[C@@H](CCCNC(=N)N)C(=O)N1CCC[C@H]1C(=O)N1CCC[C@H]1C(=O)N[C@@H](CC(C)C)C(=O)NCC(=O)N1CCC[C@H]1C(=O)N[C@@H](Cc1ccccc1)C(=O)N1CCC[C@H]1C(=O)O)[C@@H](C)CC)[C@@H](C)CC)[C@@H](C)CC)[C@@H](C)CC | broth dilution | K12 BW25113 | 18 h, 37 °C |  | 2.6 µM
CC[C@H](C)[C@H](NC(=O)[C@H](CCCNC(=N)N)NC(=O)[C@H](CCC(N)=O)NC(=O)[C@@H](NC(=O)[C@@H](NC(=O)[C@H](CCCNC(=N)N)NC(=O)[C@H](C)N)[C@@H](C)CC)C(C)C)C(=O)N[C@@H](CCCCN)C(=O)N[C@@H](CC(=O)O)C(=O)N[C@@H](Cc1ccccc1)C(=O)N[C@@H](CC(C)C)C(=O)N[C@@H](CCCNC(=N)N)C(N)=O | broth microdilution | K12 | 16 h, 37 °C |  | 63 ± 21 µM
CC[C@H](C)[C@H](NC(=O)[C@@H](NC(=O)[C@H](Cc1ccccc1)NC(=O)CNC(=O)[C@H](CCC(N)=O)NC(=O)[C@H](CCCCN)NC(=O)[C@H](C)N)C(C)C)C(=O)N[C@@H](Cc1ccc(O)cc1)C(=O)N[C@@H](CCCNC(=N)N)C(=O)N[C@H](C(=O)N[C@@H](CCCNC(=N)N)C(=O)N[C@H](C(=O)N[C@@H](CCCNC(=N)N)C(=O)N[C@@H](CCCNC(=N)N)C(=O)NCC(=O)N[C@@H](CC(N)=O)C(=O)N[C@@H](CCCNC(=N)N)C(=O)N[C@@H](CCCCN)C(N)=O)C(C)C)C(C)C | broth dilution | ATCC 25922, Mueller-Hinton broth | 24 h, 37 °C |  | 25 µM
CC[C@H](C)[C@H](NC(=O)[C@H](CCCCN)NC(=O)[C@H](CCCCN)NC(=O)CNC(=O)[C@H](CCCCN)NC(=O)[C@H](CC(C)C)NC(=O)[C@H](CCCCN)NC(=O)[C@H](CCCNC(=N)N)NC(=O)[C@@H](NC(=O)[C@H](CC(C)C)NC(=O)[C@H](CCCNC(=N)N)NC(=O)[C@@H](N)CCCNC(=N)N)[C@@H](C)CC)C(=O)N[C@@H](Cc1ccc(O)cc1)C(=O)N[C@@H](CC(C)C)C(=O)N[C@@H](Cc1ccc(O)cc1)C(=O)N[C@@H](Cc1ccccc1)C(=O)N[C@@H](CCCCN)C(=O)N[C@@H](CC(C)C)C(=O)N[C@@H](CCC(N)=O)C(=O)N[C@@H](CC(C)C)C(=O)N[C@@H](CC(C)C)C(=O)N[C@@H](CCCCN)C(=O)N[C@@H](CCCCN)C(N)=O |  | KCTC 1682, Mueller-Hinton broth | together with: 2.5 mM CaCl2 |  | 32 µM
CC[C@H](C)[C@H](N)C(=O)N[C@@H](CO)C(=O)N[C@@H](Cc1ccccc1)C(=O)N[C@@H](CC(C)C)C(=O)NCC(=O)N[C@@H](CO)C(=O)N[C@@H](CCCCN)C(=O)N[C@H](C(=O)N[C@H](C(=O)N[C@H](C(=O)N[C@@H](CC(C)C)C(=O)N[C@@H](CC(C)C)C(=O)N[C@@H](CCCCN)C(=O)N[C@@H](CCCNC(=N)N)C(=O)N[C@@H](CCCNC(=N)N)C(=O)N[C@@H](CCCCN)C(=O)N[C@@H](CCCNC(=N)N)C(=O)N[C@@H](CCCCN)C(=O)N[C@@H](CCCNC(=N)N)C(=O)N[C@@H](CCCCN)C(N)=O)C(C)C)C(C)C)C(C)C | checkerboard |  | 24 h, 37 °C, alone, rifampicin plate |  | 8 µM
CC[C@H](C)[C@H](NC(=O)CN)C(=O)NCC(=O)N[C@@H](C)C(=O)N[C@H](C(=O)N[C@@H](CC(C)C)C(=O)N[C@@H](CCCCN)C(=O)N[C@H](C(=O)N[C@@H](CC(C)C)C(=O)N[C@H](C(=O)N[C@H](C(=O)NCC(=O)N[C@@H](CC(C)C)C(=O)N1CCC[C@H]1C(=O)N[C@@H](C)C(=O)N[C@@H](CC(C)C)C(=O)N[C@H](C(=O)N[C@@H](CO)C(=O)N[C@@H](Cc1c[nH]c2ccccc12)C(=O)N[C@H](C(=O)N[C@@H](CCCCN)C(=O)N[C@@H](CCCNC(=N)N)C(=O)N[C@@H](CCCCN)C(=O)N[C@@H](CCCNC(=N)N)C(=O)N[C@@H](CCC(N)=O)C(=O)N[C@@H](CCC(N)=O)C(N)=O)[C@@H](C)CC)[C@@H](C)CC)[C@@H](C)O)[C@@H](C)O)C(C)C)C(C)C |  | NCCP 16044 carbapenem-resistant |  |  | 8 µM
c1ccc(CN(CCN(Cc2ccccn2)Cc2ccccn2)Cc2ccccn2)nc1 |  | NDM-1 producing | compound alone |  | 125 µM
N=C(N)c1ccc(OCc2ccccc2COc2ccc(C(=N)N)cc2)cc1 |  | BW25113 mcr-1 | compound alone |  | > 200 µg/mL
C[C@@H](O)[C@H](NC(=O)[C@H](Cc1c[nH]c2ccccc12)NC(=O)[C@H](Cc1c[nH]c2ccccc12)NC(=O)[C@H](Cc1c[nH]c2ccccc12)NC(=O)[C@@H](NC(=O)[C@H](Cc1c[nH]c2ccccc12)NC(=O)[C@H](CCCNC(=N)N)NC(=O)[C@@H](N)CCCNC(=N)N)[C@@H](C)O)C(=O)N[C@@H](Cc1c[nH]c2ccccc12)C(=O)N[C@@H](CCCNC(=N)N)C(=O)N[C@@H](CCCNC(=N)N)C(N)=O |  | UB1005 | 24 h, 37 °C |  | 2 µM
Cc1cc(-c2cn[nH]c2-c2cccc(OCc3cccc(C#N)c3)c2)cc(C)n1 |  | multidrug-resistant clinical isolates |  |  | 8 µg/mL
CC[C@H](C)[C@H](NC(=O)CNC(=O)[C@H](CC(=O)O)NC(=O)[C@H](CCC(=O)O)NC(=O)[C@@H](NC(=O)[C@H](CC(N)=O)NC(=O)[C@H](CCCNC(=N)N)NC(=O)CNC(=O)[C@@H](NC(=O)[C@H](CCCCN)NC(=O)[C@H](CCC(=O)O)NC(=O)[C@@H](NC(=O)[C@H](CCCCN)NC(=O)[C@H](CCCCN)NC(=O)[C@H](Cc1ccccc1)NC(=O)[C@@H](NC(=O)[C@H](CCCCN)NC(=O)[C@H](Cc1c[nH]c2ccccc12)NC(=O)[C@@H](N)CCCNC(=N)N)[C@@H](C)CC)[C@@H](C)CC)C(C)C)C(C)C)C(=O)N[C@H](C(=O)N[C@@H](CCCCN)C(=O)N[C@@H](C)C(=O)NCC(=O)N1CCC[C@H]1C(=O)N[C@@H](C)C(=O)N[C@H](C(=O)N[C@@H](C)C(=O)N[C@H](C(=O)N[C@H](C(=O)NCC(=O)N[C@@H](CCC(N)=O)C(=O)N[C@@H](C)C(=O)N[C@@H](C)C(=O)N[C@H](C(=O)N[C@H](C(=O)N[C@H](C(=O)N[C@@H](CCCCN)C(N)=O)C(C)C)C(C)C)[C@@H](C)O)C(C)C)C(C)C)C(C)C)[C@@H](C)CC |  | KCTC 1682, Mueller-Hinton broth | 16 h, 37 °C | growth inhibition over 99% | 8 µM
CC(C)[C@H](N)C(=O)N[C@@H](CC(=O)O)C(=O)N[C@@H](CCCCN)C(=O)N[C@@H](CCCCN)C(=O)N1CCC[C@H]1C(=O)N[C@@H](Cc1ccc(O)cc1)C(=O)N[C@@H](CCCNC(=N)N)C(=O)N1CCC[C@H]1C(=O)N[C@@H](CCCNC(=N)N)C(=O)N1CCC[C@H]1C(=O)N[C@@H](CCCNC(=N)N)C(=O)N1CCC[C@H]1C(=O)N1CCC[C@H]1C(=O)N[C@@H](CCCNC(=N)N)C(=O)N[C@@H](CCCNC(=N)N)C(N)=O | broth microdilution | MRE600 | 16 h, 37 °C, 25% Mueller-Hinton broth |  | 1 µg/mL
CC1(C)S[C@@H]2[C@H](NC(=O)C(C(=O)O)c3ccccc3)C(=O)N2[C@H]1C(=O)O (stereo partly drawn) |  | BL21(DE3) wild type |  |  | < 1.75 µg/mL
CC[C@H](C)[C@H](NC(=O)[C@H](CC(C)C)NC(=O)[C@H](CCCCN)NC(=O)[C@@H](NC(=O)[C@H](C)NC(=O)[C@H](CCC(=O)O)NC(=O)[C@H](Cc1c[nH]cn1)NC(=O)[C@@H](NC(=O)[C@H](CCCCN)NC(=O)[C@H](CCC(N)=O)NC(=O)[C@H](Cc1ccccc1)NC(=O)[C@@H](NC(=O)[C@H](CCCCN)NC(=O)[C@@H](N)CCCCN)C(C)C)[C@@H](C)CC)[C@@H](C)CC)C(N)=O | broth microdilution | CCARM 1229 resistant | 18 h, 37 °C |  | 16 µM
CC[C@H](C)[C@H](NC(=O)[C@H](CC(C)C)NC(=O)[C@@H]1CCCN1C(=O)[C@H](CC(C)C)NC(=O)[C@H](C)NC(=O)[C@H](CCCCN)NC(=O)[C@@H](NC(=O)[C@@H](NC(=O)[C@@H](NC(=O)[C@H](CCCCN)NC(=O)CNC(=O)[C@@H](NC(=O)[C@H](CCCCN)NC(=O)[C@H](CCCCN)NC(=O)CNC(=O)[C@@H](NC(=O)[C@H](CCC(=O)O)NC(=O)[C@H](CCC(=O)O)NC(=O)[C@H](CC(C)C)NC(=O)[C@H](CCCNC(=N)N)NC(=O)[C@H](CCCCN)NC(=O)CNC(=O)[C@H](Cc1ccccc1)NC(=O)[C@H](CC(N)=O)NC(=O)[C@H](CCCNC(=N)N)NC(=O)[C@H](CC(C)C)NC(=O)CNC(=O)[C@@H](N)CCC(=O)O)C(C)C)C(C)C)C(C)C)[C@@H](C)O)[C@@H](C)CC)C(=O)N[C@@H](C)C(=O)NCC(=O)N[C@@H](Cc1ccc(O)cc1)C(=O)N[C@@H](C)C(=O)N[C@@H](CO)C(=O)O | broth microdilution | K88, Mueller-Hinton broth | 37 °C |  | 4.96 µM
C[C@@H](O)[C@H]1C(=O)N2C(C(=O)O)=C(SCCN=CN)C[C@H]12 |  | DH5a clone with KPC-100 |  |  | 1 µg/mL
CC1(C)CC[C@]2(C(=O)O)CC[C@]3(C)C(=CC[C@@H]4[C@@]5(C)CC[C@H](O)C(C)(C)[C@@H]5CC[C@]43C)[C@@H]2C1 |  | NDM-5 |  |  | 512 µg/mL

For quick reference, copied from above:
SMILES | test | system | setting | scale | MIC
c1ccc(CN(CCN(Cc2ccccn2)Cc2ccccn2)Cc2ccccn2)nc1 |  | NDM-1 producing | compound alone |  | 125 µM
